Assay results of several laboratories.
Sequence of UniProt Q9UHD2 (whole entry, looked up): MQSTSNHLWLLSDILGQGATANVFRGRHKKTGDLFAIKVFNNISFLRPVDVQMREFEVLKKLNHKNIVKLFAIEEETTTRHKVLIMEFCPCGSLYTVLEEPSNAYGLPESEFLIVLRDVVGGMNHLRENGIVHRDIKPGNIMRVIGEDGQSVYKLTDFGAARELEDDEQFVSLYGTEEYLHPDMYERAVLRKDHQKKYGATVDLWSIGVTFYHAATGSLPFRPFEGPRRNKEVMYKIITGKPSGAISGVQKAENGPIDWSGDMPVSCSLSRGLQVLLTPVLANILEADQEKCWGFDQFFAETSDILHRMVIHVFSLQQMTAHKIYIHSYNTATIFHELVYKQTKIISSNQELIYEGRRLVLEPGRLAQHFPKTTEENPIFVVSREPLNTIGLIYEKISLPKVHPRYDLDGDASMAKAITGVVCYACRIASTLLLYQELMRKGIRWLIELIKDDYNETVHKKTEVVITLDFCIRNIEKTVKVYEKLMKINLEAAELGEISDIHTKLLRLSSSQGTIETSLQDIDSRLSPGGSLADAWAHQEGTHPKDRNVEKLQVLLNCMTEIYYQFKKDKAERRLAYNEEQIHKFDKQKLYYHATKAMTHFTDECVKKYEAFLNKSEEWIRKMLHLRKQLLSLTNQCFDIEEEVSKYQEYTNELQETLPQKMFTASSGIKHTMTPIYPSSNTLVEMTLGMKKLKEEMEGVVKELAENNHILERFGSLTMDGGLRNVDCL
Sequence of UniProt Q9P2K8 (whole entry, unmodified, looked up): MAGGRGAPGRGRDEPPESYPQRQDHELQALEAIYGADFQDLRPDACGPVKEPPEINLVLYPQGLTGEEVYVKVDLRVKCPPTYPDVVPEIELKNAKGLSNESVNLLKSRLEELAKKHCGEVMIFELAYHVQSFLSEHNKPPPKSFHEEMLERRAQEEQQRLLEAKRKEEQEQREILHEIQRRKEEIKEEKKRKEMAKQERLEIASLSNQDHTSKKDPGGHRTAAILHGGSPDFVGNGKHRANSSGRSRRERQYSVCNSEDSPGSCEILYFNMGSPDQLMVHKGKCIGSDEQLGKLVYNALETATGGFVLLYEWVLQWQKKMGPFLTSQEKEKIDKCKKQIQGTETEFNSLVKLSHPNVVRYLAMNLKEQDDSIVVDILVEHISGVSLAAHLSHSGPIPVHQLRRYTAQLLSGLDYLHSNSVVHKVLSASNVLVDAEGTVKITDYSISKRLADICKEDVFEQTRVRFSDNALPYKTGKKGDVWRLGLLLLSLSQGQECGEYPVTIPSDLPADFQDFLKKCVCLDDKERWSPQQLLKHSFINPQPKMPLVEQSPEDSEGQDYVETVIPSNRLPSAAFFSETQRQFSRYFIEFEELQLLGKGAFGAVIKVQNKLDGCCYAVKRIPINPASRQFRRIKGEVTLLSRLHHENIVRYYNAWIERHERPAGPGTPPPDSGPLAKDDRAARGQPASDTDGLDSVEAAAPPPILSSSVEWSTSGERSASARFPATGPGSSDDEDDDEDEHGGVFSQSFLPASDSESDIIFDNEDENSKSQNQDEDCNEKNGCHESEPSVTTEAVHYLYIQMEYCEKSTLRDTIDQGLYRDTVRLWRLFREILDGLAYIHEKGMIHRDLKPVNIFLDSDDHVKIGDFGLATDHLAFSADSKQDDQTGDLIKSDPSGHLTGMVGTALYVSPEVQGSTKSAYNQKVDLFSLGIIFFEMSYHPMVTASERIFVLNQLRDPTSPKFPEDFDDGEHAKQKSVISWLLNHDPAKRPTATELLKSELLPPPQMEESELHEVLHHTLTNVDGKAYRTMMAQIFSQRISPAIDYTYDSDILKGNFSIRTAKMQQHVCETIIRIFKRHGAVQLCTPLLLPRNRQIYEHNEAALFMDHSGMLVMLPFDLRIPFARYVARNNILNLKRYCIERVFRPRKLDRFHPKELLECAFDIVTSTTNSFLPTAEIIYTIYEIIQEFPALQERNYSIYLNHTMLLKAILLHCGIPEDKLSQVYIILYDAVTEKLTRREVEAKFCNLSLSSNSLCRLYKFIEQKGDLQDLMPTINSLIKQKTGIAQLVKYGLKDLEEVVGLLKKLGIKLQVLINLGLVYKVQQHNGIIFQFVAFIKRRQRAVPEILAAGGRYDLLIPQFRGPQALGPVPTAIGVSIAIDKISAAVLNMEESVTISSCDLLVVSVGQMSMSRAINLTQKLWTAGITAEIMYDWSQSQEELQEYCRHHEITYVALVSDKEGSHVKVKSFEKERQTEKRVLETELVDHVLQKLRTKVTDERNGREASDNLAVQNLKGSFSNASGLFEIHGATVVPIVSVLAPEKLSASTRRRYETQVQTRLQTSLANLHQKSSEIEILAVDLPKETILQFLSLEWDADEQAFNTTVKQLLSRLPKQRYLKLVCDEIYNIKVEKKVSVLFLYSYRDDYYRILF
Sequence of UniProt Q9Y2H1 (whole entry, looked up): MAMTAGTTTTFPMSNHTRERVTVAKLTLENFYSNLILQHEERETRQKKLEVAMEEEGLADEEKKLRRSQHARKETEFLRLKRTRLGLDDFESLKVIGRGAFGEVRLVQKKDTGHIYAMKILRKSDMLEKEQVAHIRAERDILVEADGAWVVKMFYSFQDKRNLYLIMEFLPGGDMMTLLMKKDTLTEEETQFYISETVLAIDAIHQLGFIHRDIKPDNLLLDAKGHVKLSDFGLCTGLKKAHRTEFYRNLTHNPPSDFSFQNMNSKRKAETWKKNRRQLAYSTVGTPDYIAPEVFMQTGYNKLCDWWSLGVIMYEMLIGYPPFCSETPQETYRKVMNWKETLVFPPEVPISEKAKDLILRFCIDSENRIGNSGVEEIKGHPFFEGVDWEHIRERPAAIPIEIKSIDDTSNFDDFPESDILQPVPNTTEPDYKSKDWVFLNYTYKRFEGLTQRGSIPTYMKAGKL
Sequence of UniProt Q9H4B4 (whole entry, looked up): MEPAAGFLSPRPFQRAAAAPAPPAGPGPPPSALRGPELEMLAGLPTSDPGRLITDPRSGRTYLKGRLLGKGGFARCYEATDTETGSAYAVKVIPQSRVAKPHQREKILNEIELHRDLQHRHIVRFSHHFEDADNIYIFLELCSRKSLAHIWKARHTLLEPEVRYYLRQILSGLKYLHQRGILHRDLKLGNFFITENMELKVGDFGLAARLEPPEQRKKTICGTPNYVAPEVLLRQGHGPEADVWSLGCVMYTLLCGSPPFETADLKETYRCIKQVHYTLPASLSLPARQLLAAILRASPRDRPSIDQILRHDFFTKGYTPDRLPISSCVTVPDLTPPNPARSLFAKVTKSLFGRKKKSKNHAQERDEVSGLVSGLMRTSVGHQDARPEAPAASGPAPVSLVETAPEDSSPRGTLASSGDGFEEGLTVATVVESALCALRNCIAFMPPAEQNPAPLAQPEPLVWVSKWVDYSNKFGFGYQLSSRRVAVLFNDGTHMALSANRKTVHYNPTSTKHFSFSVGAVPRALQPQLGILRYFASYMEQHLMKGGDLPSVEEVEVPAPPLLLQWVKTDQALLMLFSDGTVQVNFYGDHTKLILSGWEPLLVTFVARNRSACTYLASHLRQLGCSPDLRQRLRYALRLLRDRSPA

SMILES	tested on	assay	test system	conditions	quantity	value
CCc1c(C)c2ccc(OCC=Cc3ccccc3)c(C)c2oc1=O	PC-3	cell growth or viability, MTT		1000 µg/mL	viability	6.48%
COc1cc([C@@H]2c3cc4c(cc3[C@@H](O[C@@H]3O[C@@H]5CO[C@@H](C)O[C@H]5[C@H](O)[C@H]3O)[C@H]3COC(=O)[C@H]23)OCO4)cc(OC)c1O	MB002	cell growth or viability		7 days	IC50	0.012 µM
Cc1[nH]c(C)c([N+](=O)[O-])c(=O)c1-c1ccc(Oc2ccccc2)cc1	HEK293	cell growth or viability			IC50	> 10 µM
O=C(Nc1ccc(Oc2nnc(-c3ccc(Cl)cc3)c3ccccc23)cc1)c1cccc([N+](=O)[O-])c1	MCF7	cell growth or viability, MTT		5 µM, 24 h	viability	7.92%
Cc1ccc(C(CS(=O)(=O)c2ccccc2)=NNC2=NC(=O)C(=NNc3ccc([N+](=O)[O-])cc3)S2)cc1	WM 266-4	cell growth or viability, MTT		100 µM, 48 h	viability	27.4%
C=CC(=O)N1CCC(COCC(=O)N2CCN(c3nc(-c4cnc(N)nc4C(F)F)nc(N4CCOC[C@@H]4C)n3)CC2)CC1	Serine/threonine-protein kinase 38-like (STK38L, Homo sapiens, UniProt Q9Y2H1)	binding, competition with immobilised ligand		1 µM	remaining binding	73%
CCCOc1ccc2c(C)c(CC)c(=O)oc2c1C	PC-3	cell growth or viability, MTT		62.5 µg/mL	viability	96.7%
C=C(C)[C@@H]1CC[C@@H](C)C[C@H]1OCc1ccccc1	A2780	cell growth or viability, MTT		30 µM, 72 h	inhibition	42.9%
CNc1ncc2c(/C=C/C(=O)N3CCC(C)CC3)nn(CC3CCCC3)c2n1	FLO-1	cell growth or viability, resazurin		5 days	EC50	21.2 µM
N#Cc1ccc(N2CCN(Cc3ccc(-c4ccc(-c5nc6cc(C(F)(F)F)ccc6[nH]5)cc4)cc3)CC2)nc1	HEK293	cell growth or viability			IC50	> 10 µM
Cc1cc([C@@H](C)Nc2ccccc2C(=O)O)c2nc(N3CCC(F)(F)CC3)c(C#N)c(=O)n2c1	Serine/threonine-protein kinase PLK3 (PLK3, Homo sapiens, UniProt Q9H4B4)	binding, competition with immobilised ligand		10 µM	remaining binding	100%
OCc1ccc(-c2nn(Cc3ccncc3)c3cccnc23)o1	RBE	cell growth or viability, ATP luminescence		46 µM, 72 h	inhibition	73%
COc1cc(-c2nn(CCN3CCC(N(C)C)CC3)c3ncnc(N)c23)ccc1NC(=O)OC(C)(C)C	FLO-1	cell growth or viability, resazurin		5 days	EC50	0.21 µM
O=C(c1cc(-c2ccco2)[nH]n1)N1CCN(S(=O)(=O)c2ccc(Cl)cc2)CC1	HEK293	cell growth or viability			IC50	> 10 µM
CC(=NNC(=O)c1ccc(N)cc1)c1ccc(Nc2nnc(-c3ccc(Cl)cc3)c3ccccc23)cc1	MCF7	cell growth or viability, MTT		1.25 µM, 24 h	viability	14.1%
CNc1ncc2c(/C=C/C(=O)N3CCC(OC)CC3)nn(CCC(C)C)c2n1	FLO-1	cell growth or viability, resazurin		5 days	EC50	18.8 µM
CC(C)(C)c1nc(-c2cccc(NS(=O)(=O)c3c(F)cccc3F)c2F)c(-c2ccnc(N)n2)s1	WM 266-4	cell growth or viability, MTT		0.4 µM, 48 h	viability	73.4%
Cc1c(C(=O)Nc2ccc(N3C[C@@H](C)O[C@@H](C)C3)nc2)cccc1-c1ccc(OC(F)(F)F)cc1	HD-MB03	cell growth or viability		7 days	IC50	> 10 µM
CNc1ncc2c(/C=C/C(=O)N3CCC(OC)CC3)nn(Cc3ccc(C(F)(F)F)cc3)c2n1	FLO-1	cell growth or viability, resazurin		5 days	EC50	1.07 µM
C[C@@H]1CC[C@@H]([C@](O)(CNCc2ccccc2)COCc2ccccc2)[C@H](OCc2ccccc2)C1	HeLa	cell growth or viability, MTT		30 µM, 72 h	inhibition	98.7%

SMILES	tested on	assay	test system	conditions	quantity	value
CC(=NNC(=O)c1ccncc1)c1ccc(Nc2nnc(-c3ccc(Cl)cc3)c3ccccc23)cc1	MCF7	cell growth or viability, MTT		5 µM	cell death	93.3%
COc1ccc(C=C2SC(=N)N(c3ccccc3OC)C2=O)cc1	HEK293	cell growth or viability			IC50	> 10 µM
COc1cc(-c2cncc3c2CN(C)Cc2cc(N4CCNCC4)ccc2-3)cc(OC)c1OC	Serine/threonine-protein kinase TBK1 (TBK1, Homo sapiens, UniProt Q9UHD2)	enzyme activity, inhibitor		1 µM	remaining activity	114%
CCOc1ccc2c(C)c(CC)c(=O)oc2c1C	PC-3	cell growth or viability, MTT		250 µg/mL	viability	8.76%
CNc1ncc2c(/C=C/C(=O)N3CCC(OC)CC3)nn(Cc3ccc(C)cc3)c2n1	FLO-1	cell growth or viability, resazurin		5 days	EC50	2.34 µM
CCNC(=S)NNC(=O)COc1ccc2c(C)c(CC)c(=O)oc2c1C	PC-3	cell growth or viability, MTT		125 µg/mL	viability	55.4%
Cc1cccc(-c2nn3c(c2-c2ccnc4ccc(C(N)=O)cc24)CCC3)n1	HD-MB03	cell growth or viability		7 days	IC50	> 10 µM
Cc1[nH]c(C)c(-c2ccc(-c3ccccc3Cl)nc2)c(=O)c1Br	HEK293	cell growth or viability			IC50	> 10 µM
Cc1c(Cc2ccccc2)c(=O)oc2c(C)c(OCC(=O)NN=Cc3ccc([N+](=O)[O-])cc3)ccc12	PC-3	cell growth or viability, MTT		125 µg/mL	viability	9.13%
OCc1ccc(-c2nn(CCc3ccccc3)c3ccccc23)o1	RBE	cell growth or viability, ATP luminescence		46 µM, 72 h	inhibition	73%
CC(=NNC(=O)c1ccccc1O)c1ccc(Nc2nnc(-c3ccc(Cl)cc3)c3ccccc23)cc1	MCF7	cell growth or viability, MTT		10 µM	cell death	94.7%
CCN(Cc1ccc(OC)cc1)c1ccc(CO)c(Cl)c1	RBE	cell growth or viability, ATP luminescence		46 µM, 72 h	inhibition	83%
S=C(Nc1ccccc1)Nc1ccc(Oc2nnc(-c3ccc(Cl)cc3)c3ccccc23)cc1	MCF7	cell growth or viability, MTT		0.312 µM	cell death	0%
C[C@@H]1CC[C@@H]([C@](O)(CNCc2ccccc2)COCc2ccc(F)cc2)[C@H](OCc2ccc(F)cc2)C1	HeLa	cell growth or viability, MTT		10 µM, 72 h	inhibition	98.2%
Cc1ccc(C(CS(=O)(=O)c2ccccc2)=NNC2=NC(=O)C(=NNc3ccccc3)S2)cc1	WM 266-4	cell growth or viability, MTT		0.4 µM, 48 h	viability	65.5%
CCc1nc(C(N)=O)c(Nc2ccc(N3CCC(N4CCN(C)CC4)CC3)c(OC)c2)nc1NC1CCOCC1	Kasumi 1	cell growth or viability		72 h	GI50	0.355 µM
Cc1cn(-c2cc(NC(=O)c3ccc(C)c(Nc4nccc(-c5cccnc5)n4)c3)cc(C(F)(F)F)c2)cn1	HD-MB03	cell growth or viability		7 days	IC50	> 10 µM
C=CCNC(=S)NNC(=O)COc1ccc2c(C)c(CC)c(=O)oc2c1C	PC-3	cell growth or viability, MTT		62.5 µg/mL	viability	87.6%
CCCCC(=O)Nc1ccc(-c2ccc3ncn(CCC)c(=O)c3c2)cn1	eIF-2-alpha kinase GCN2 (EIF2AK4, Homo sapiens, UniProt Q9P2K8, S808G)	binding, competition with immobilised ligand		0.5 µM	remaining binding	76%
CCN(Cc1ccccc1Cl)c1ccc(CO)c(Cl)c1	RBE	cell growth or viability, ATP luminescence		46 µM, 72 h	inhibition	87%

SMILES	tested on	assay	test system	conditions	quantity	value
C[C@@H]1CC[C@@H]([C@](C)(O)CNCc2ccccc2F)[C@H](OCc2ccccc2)C1	HeLa	cell growth or viability, MTT		30 µM, 72 h	inhibition	90.4%
O=S(=O)(Nc1nccs1)c1ccc(N=NN(O)c2ccccc2)cc1		ABTS scavenging		300 µg/mL	inhibition	99.8%
CCc1c(C)c2ccc(OCC(=O)NNC(=S)Nc3ccccc3)c(C)c2oc1=O	PC-3	cell growth or viability, MTT		250 µg/mL	viability	2.75%
COc1ccccc1Cn1nc(-c2ccc(CO)o2)c2ccccc21	RBE	cell growth or viability, ATP luminescence			IC50	0.447 µM
Cc1nc2c(c(O)c1Cl)-c1ccc(Oc3cccc(C(F)(F)F)c3)cc1C2=O	HEK293	cell growth or viability			IC50	> 10 µM
C[C@@H]1CC[C@@H]([C@@](C)(O)Cn2cnc3ccccc32)[C@H](OCc2ccccc2)C1	A2780	cell growth or viability, MTT		10 µM, 72 h	inhibition	44.3%
CCCCCCCc1c(C)[nH]c2ccccc2c1=O	HEK293	cell growth or viability			IC50	> 10 µM
CN(C)CCNC(=O)c1ccc(-c2nc3ccc4[nH]ncc4c3c3c2CCCC3)c(F)c1	Kasumi 1	cell growth or viability		72 h	GI50	0.727 µM
COC1CCN(C(=O)/C=C/c2nn(CC3CCCC3)c3ncnc(N)c23)CC1	FLO-1	cell growth or viability, resazurin		5 days	EC50	> 30 µM
C[C@@H]1CC[C@@H]([C@](C)(O)CNCc2cccc(F)c2)[C@H](OCc2ccccc2)C1	HeLa	cell growth or viability, MTT		30 µM, 72 h	inhibition	98.8%
O=C(C=Cc1ccccc1)Nc1ccc(Oc2nnc(-c3ccc(Cl)cc3)c3ccccc23)cc1	MCF7	cell growth or viability, MTT		5 µM	cell death	91.6%
CCN(Cc1cccc(OC)c1)c1ccc(CO)c(Cl)c1	RBE	cell growth or viability, ATP luminescence		46 µM, 72 h	inhibition	82%
CC(=NNC(=S)Nc1ccccc1)c1ccc(Nc2nnc(-c3ccc(Cl)cc3)c3ccccc23)cc1	MCF7	cell growth or viability, MTT		5 µM, 24 h	viability	7.22%
Cc1[nH]c(C)c(-c2ccc(Oc3ccc(OC(F)(F)F)cc3)cc2)c(=O)c1Br	HEK293	cell growth or viability			IC50	> 10 µM
CCC(=CCc1c(O)cc2c(c1O)C(=O)C[C@H](c1ccccc1O)O2)CC	HeLa	cell growth or viability, MTT		30 µM, 48 h	inhibition	32%
Nc1ncnc2c1c(/C=C/C(=O)O)nn2CC1CCCC1	FLO-1	cell growth or viability, resazurin		5 days	EC50	> 30 µM
COc1cccc(-c2n[nH]c(SCc3ccccn3)n2)c1OC			female Sprague-Dawley rat, plasma	oral, 100 mg/kg, 8 h, single dose	concentration	4990 ng/mL
CCN(O)N=Nc1ccc(S(=O)(=O)Nc2nccs2)cc1		ABTS scavenging		240 µg/mL	inhibition	50.2%

For quick reference, copied from above:
SMILES	tested on	assay	test system	conditions	quantity	value
CNc1ncc2c(/C=C/C(=O)N3CCC(OC)CC3)nn(CCC(C)C)c2n1	FLO-1	cell growth or viability, resazurin		5 days	EC50	18.8 µM
Cc1[nH]c(C)c([N+](=O)[O-])c(=O)c1-c1ccc(Oc2ccccc2)cc1	HEK293	cell growth or viability			IC50	> 10 µM
CC(=NNC(=O)c1ccccc1O)c1ccc(Nc2nnc(-c3ccc(Cl)cc3)c3ccccc23)cc1	MCF7	cell growth or viability, MTT		10 µM	cell death	94.7%
C[C@@H]1CC[C@@H]([C@](O)(CNCc2ccccc2)COCc2ccc(F)cc2)[C@H](OCc2ccc(F)cc2)C1	HeLa	cell growth or viability, MTT		10 µM, 72 h	inhibition	98.2%
